Measured values collected from several papers.
Every numbered part comes from another study and shows a few of its results, in no order. Substitutions count along the parent as printed.

Sample 1 — technique: two-hybrid; setting: weak activation fusion; relative to: out of 4 tests; reading: higher = firmer interaction; measurement: positive tests
Partner: ARF17 (Arabidopsis thaliana, UniProt Q84WU6)
B1: ARF8 699-811 (Arabidopsis thaliana, UniProt Q9FGV1); chain NSSNQTKNFVKVYKSGSVGRSLDISRFSSYHELREELGKMFAIEGLLEDPLRSGWQLVFVDKENDILLLGDDPWESFVNNVWYIKILSPEDVHQMGDHGEGSGGLFPQNPTHL
B2: ARF10 575-693 (Arabidopsis thaliana, UniProt Q9SKN5); chain LQGLETGHCKVFMESEDVGRTLDLSVIGSYQELYRKLAEMFHIEERSDLLTHVVYRDANGVIKRIGDEPFSDFMKATKRLTIKMDIGGDNVRKTWITGIRTGENGIDASTKTGPLSIFA
B3: IAA32 (Arabidopsis thaliana, UniProt Q8RYC6); chain MDPNTPADFFKGSSKFHTYYSQTKKGGGVIDLGLSLRTIQHETYLPPARMIGLDGYGELIDWSQPSYNSITQLKSEDTGHQRLAQGYYNNEGESRGKYAYVKVNLDGLVVGRKVCLVDQGAYATLALQLNDMFGMQTVSGLRLFQTESEFSLVYRDREGIWRNVGDVPWKEFVESVDRMRIARRNDALLPF
B4: ARF1 538-665 (Arabidopsis thaliana, UniProt Q8L7G0); chain SRQIRSCTKVHMQGSAVGRAIDLTRSECYEDLFKKLEEMFDIKGELLESTKKWQVVYTDDEDDMMMVGDDPWNEFCGMVRKIFIYTPEEVKKLSPKNKLAVNARMQLKADAEENGNTEGRSSSMAGSR
B5: ARF9 519-638 (Arabidopsis thaliana, UniProt Q9XED8); chain SSSTRSRTKVQMQGVPVGRAVDLNALKGYNELIDDIEKLFDIKGELRSRNQWEIVFTDDEGDMMLVGDDPWPEFCNMVKRIFIWSKEEVKKMTPGNQLRMLLREVETTLTTTSKTDNHSN
B6: ARF2 727-859 (Arabidopsis thaliana, UniProt Q94JM3); chain TKTNSSRSCTKVHKQGIALGRSVDLSKFQNYEELVAELDRLFEFNGELMAPKKDWLIVYTDEENDMMLVGDDPWQEFCCMVRKIFIYTKEEVRKMNPGTLSCRSEEEAVVGEGSDAKDAKSASNPSLSSAGNS
B7: IAA34 (Arabidopsis thaliana, UniProt Q9C5X0); chain MYCSDPPHPLHLVASDKQQKDHKLILSWKKPTMDSDPLGVFPNSPKYHPYYSQTTEFGGVIDLGLSLRTIQHEIYHSSGQRYCSNEGYRRKWGYVKVTMDGLVVGRKVCVLDHGSYSTLAHQLEDMFGMQSVSGLRLFQMESEFCLVYRDEEGLWRNAGDVPWNEFIESVERLRITRRNDAVLPF
B8: IAA33 (Arabidopsis thaliana, UniProt Q9FKM7); chain MNSFEPQSQDSLQRRFHQDNSTTQQPRDTTTPFIPKPASKNHNNSNSSSGAAGRSFQGFGLNVEDDLVSSVVPPVTVVLEGRSICQRISLDKHGSYQSLASALRQMFVDGADSTDDLDLSNAIPGHLIAYEDMENDLLLAGDLTWKDFVRVAKRIRILPVKGNTRQVKRNE
Residues (chain): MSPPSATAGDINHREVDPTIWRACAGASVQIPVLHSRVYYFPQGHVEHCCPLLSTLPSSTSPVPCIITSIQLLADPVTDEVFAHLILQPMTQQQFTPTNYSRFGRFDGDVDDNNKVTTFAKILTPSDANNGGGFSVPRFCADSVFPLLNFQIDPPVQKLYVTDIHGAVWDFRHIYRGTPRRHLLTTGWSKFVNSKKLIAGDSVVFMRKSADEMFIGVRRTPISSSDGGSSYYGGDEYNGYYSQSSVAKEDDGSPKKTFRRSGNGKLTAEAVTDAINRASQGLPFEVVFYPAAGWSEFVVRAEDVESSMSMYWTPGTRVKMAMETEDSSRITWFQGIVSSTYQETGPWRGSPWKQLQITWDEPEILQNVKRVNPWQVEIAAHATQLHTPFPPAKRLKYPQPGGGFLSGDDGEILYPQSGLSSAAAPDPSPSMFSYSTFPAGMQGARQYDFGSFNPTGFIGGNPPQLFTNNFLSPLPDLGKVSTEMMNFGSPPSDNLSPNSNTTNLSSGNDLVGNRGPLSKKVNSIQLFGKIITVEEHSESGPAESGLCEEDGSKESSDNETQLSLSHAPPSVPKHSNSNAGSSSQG
B1 (ARF8 699-811): 0
B2 (ARF10 575-693): 0
B3 (IAA32): 2
B4 (ARF1 538-665): 0
B5 (ARF9 519-638): 1
B6 (ARF2 727-859): 0
B7 (IAA34): 1
B8 (IAA33): 1

Sample 2 — target: CCNB1, cyclin fold, Cln2 fusion (human); technique: yeast growth competition, sequencing; medium: yeast; setting: strong parent motif; relative to: not given; reading: higher = stronger binding; measurement: normalised enrichment score
Parent: viral docking peptide; TSVRRALFTGGSD; partner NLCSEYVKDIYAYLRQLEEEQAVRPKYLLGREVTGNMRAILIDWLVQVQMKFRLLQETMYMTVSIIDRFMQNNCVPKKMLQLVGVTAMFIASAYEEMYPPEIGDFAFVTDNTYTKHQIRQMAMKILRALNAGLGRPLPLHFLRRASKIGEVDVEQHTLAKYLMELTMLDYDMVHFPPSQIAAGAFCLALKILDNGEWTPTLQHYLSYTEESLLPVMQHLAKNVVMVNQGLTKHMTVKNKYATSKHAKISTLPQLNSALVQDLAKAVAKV
G11H: 1.9
A6K: 1.56
R5Y: 0.469
R5M: 1.06
T9A: 1.37
S2R: 1.67
R4S: 1.33
R5Q: 1.03
F8E: -0.101
V3S: -0.0646
R4K: 1.32
T9S: 1.69
L7Y: 0.456
T9P: 1.79
R5S: 0.152
V3D: -0.0908
T9M: 1.79
R4Y: 0.759
A6H: 0.55
S2N: 2.24
L7E: 0.167
S2Y: 1.15
L7C: 0.427
S12F: 1.71

Sample 3 — effect on: peptide-MHC binding; molecule type: peptide; concentration: concentration not given; measurement: binding
Target: HLA class I histocompatibility antigen, A alpha chain, allele A*25:01 (Homo sapiens, UniProt P04439)
GSFRKICGF: inactive
YSSHELWHF: inactive
AYDHGNVIL: inactive
EVIPYTPAM: active

Sample 4 — target: UBE2D2 UBC core domain (UniProt P62837); technique: yeast two-hybrid; medium: yeast; setting: mostly zero background; relative to: not given; reading: higher = stronger interaction; measurement: lacZ reporter activity
Sequence of UniProt P62837 (whole entry, looked up): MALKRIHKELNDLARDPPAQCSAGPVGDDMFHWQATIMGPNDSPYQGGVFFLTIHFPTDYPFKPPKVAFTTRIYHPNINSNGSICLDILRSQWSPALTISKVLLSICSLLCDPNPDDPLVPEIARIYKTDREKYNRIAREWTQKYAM
B9: RNF24 RING domain (UniProt Q9Y225); chain KVKELNLHELCAVCLEDFKPRDELGICPCKHAFHRKCLIKWLEVRKVCPLCNMPVLQLAQLH
KEQLEKHNDICAICYQDMKSAVITPCSHFFHAGCLKKWLYVQETCPLCHCHLKNSSQLP (RNF145 RING domain (UniProt Q96MT1)): 0
ALDRLEKLLRCSRCTNILREPVCLGGCEHIFCSNCVSDCIGTGCPVCYTPAWIQDLKI (BARD1 RING domain (UniProt Q99728)): 0
NTAPSLTVPECAICLQTCVHPVSLPCKHVFCYLCVKGASWLGKRCALCRQEIPEDFLDK (RNF146 RING domain (UniProt Q9NTX7)): 0
B9 (RNF24 RING domain): 0

Sample 5 — technique: EMSA with sequencing; molecule type: double-stranded DNA, one strand shown; medium: in vitro; concentration: 10 and 20 nM; relative to: negative control set to 0; reading: higher = stronger binding; measurement: normalised bound fraction
Target: Hepatocyte nuclear factor 3-alpha (Foxa1, Mus musculus, UniProt P35582, residues 1-468, full length assumed)
Setting: whole designed probe, mean of two concentrations, ends assumed
Shared flanks, not repeated: GTGAGCGGTGCCCATTGATGGGGAAC … TTTCACTGGGATCGTGGGGAC
Residues (chain): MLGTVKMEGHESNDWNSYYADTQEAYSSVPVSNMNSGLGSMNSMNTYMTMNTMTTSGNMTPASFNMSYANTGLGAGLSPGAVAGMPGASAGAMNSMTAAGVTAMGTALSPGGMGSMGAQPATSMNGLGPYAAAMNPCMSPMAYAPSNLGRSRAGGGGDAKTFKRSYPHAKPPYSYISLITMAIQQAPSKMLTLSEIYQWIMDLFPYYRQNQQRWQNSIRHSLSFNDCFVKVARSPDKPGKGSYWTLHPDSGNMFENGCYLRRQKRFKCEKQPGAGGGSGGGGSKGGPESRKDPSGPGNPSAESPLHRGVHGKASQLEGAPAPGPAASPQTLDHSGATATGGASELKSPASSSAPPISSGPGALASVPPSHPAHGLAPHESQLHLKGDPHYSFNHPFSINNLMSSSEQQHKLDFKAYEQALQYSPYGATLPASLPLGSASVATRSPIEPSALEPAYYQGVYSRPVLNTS
TGGAAATAAATATTATGATAGCATCCTTGTTTCCATGGAAACATCGCTATCAGTATACCTCTGAATATGCATTTGCCTTTGTTTCTCTGGCTAAGTAAACAAGCATAAATCCATACTACTTGTTTTCTTTATAAGTTTTATCTGAGATCCAGAATAAGCCAACAGCAAGAGAGCAATGAGTGCAATTTTGTAC: 0.494 ratio
CCCTACAATGGCTGGAATATGGAGTGAAATGCCAGGGTGGTCCCTACTAAGTGCATGGACATGGTAGGTTAACTGCTTTTTTTCTAGGAGCTGAGTAATCTGAGAGGGTCACACAGAAAAACATTTGTTTCTGTTTTGATCATGCCCTTTTAAGGTGCATGTTATACAGATCAAGATTCCAACTGCTACGAGT: -0.0654 ratio
CAATGGGGTAGGTCAGCCCCAGTGAACTCTCAAATGACCACTGAAGGAGGAAGTGAGTGCAGAGTGTGATACCACTCACATCCCAGCCCAGACTGTTTGCTCAGCTGGGAGGAGTGTTGCAATTTTCTTCCTGCACGAGATAACACCCCTTCTCATGGCTTCAGGCATCACCTATCTCCTCTAGGCTGCGCTC: 0.2 ratio
ATGTGGGAACTAATTGAGGACCATGTTTACAATGCGTACAAATCATAAATCAATTAGTTCATATTGATTTACAAACAACGTAGAAAAAGTATTTGTTTACATTGATACTGTCCATGTAAACTTTTTTCAATTCAAAAGAAACACATAGTTCTGTCATAAAGTAGATTTTCTATCCCTTTTATTTTCTGAGCTT: 0.331 ratio
ATCTTCCCCCTCTTCCTTGCCCCACCAGCTCACCTTCCCGGGTATATTGGAGATAGGAAATTAATATAAGCCGGCATTCGTTAACCCTCTTCACGCGCATACTGCACATTGGTCTGGATCTAACATGGTCCTTTGGCGACGCCAGGCTCCGGGAGAGCAAAGCACCGTGTCAGGGCCATGATCCGGGGTGGCC: 0.0334 ratio
AGGTGGGGTAAGGGATGTGTACTCTTTCAAGGAGTGGGAGAATTATTCTAGCGAATGTTTGTGTTGTCCCAGTTCTGTTTACAAAGCCTCGTCATGTTTACAGATGGCTGCGCAATTCATTACCTCATTTAACTCTCATGTACCTCCTCTGAGGGAGTAAGAGCTGTTACAGCCAAGTTTAGGTCAGTAAATA: 0.379 ratio
TTTGAAATTTAGGAAAAGTTAATATGAATGAGAGAAAAATAACCAAAAAGAAATAGCAATTATTCCTTACTAATGTTATTTTTCTGTCTGCAAAGTAAACATAGTAAAAGAAATTTTTCACTTTAAGTTATGAAAGTTGACACTATTATCTATAATTTTTACATGTGCCTCTATTATATGTCCTCTAGCCTTT: 0.411 ratio
AAAAGCCAACTAAATATTTATTTCAAAAGTAGTTCATATTACATGTAAAGAATGGTTTAAAAAAAATTCTTACTTAATCCCTGGTTTATGTGAGTAAATATGAATTCTTAAGAATCCCATTTCCCAAATGGCATCATAATATTTTGTAATCATTTCTTGCCACAGGTCATATATCGTGGATAGTTCTGTATGT: 0.163 ratio

Some of these lines once more (sample 2):
T9A: 1.37
S2R: 1.67
R5Y: 0.469
L7Y: 0.456
R5S: 0.152
